Measurements collected from several papers.
Parts stem from different laboratories: compare values within a part only.

Series 1 — technique: protein-binding microarray; form: double-stranded DNA, one strand shown; sample: in vitro; concentration: not given; direction: higher = stronger binding
Target: Myc proto-oncogene protein, bHLH-zipper, MAX partner unstated (MYC, Homo sapiens, UniProt P01106, residues 368-449)
UniProt P01106, sequence (368-449, looked up): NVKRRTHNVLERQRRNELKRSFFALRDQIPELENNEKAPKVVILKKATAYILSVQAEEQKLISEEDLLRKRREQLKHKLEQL
Setting: k-mer, scored over probes, only values ≥0.25
For `CATCCACG`, the E-score was 0.355.
`ACGAGGCT` gave an E-score of 0.262.
`CCTACCAC` gave an E-score of 0.278.
`AGCATGCA` gave an E-score of 0.401.
`AACCTCGC` has an E-score of 0.299.
`AACCACAT` has an E-score of 0.311.
With `AAACACGT` the E-score was 0.389.
`CCATGCAA` has an E-score of 0.337.
`ACGTGGGC` gave an E-score of 0.419.
`ACGTGCGC` has an E-score of 0.436.
For `CGTGTAAG`, the E-score was 0.302.
With `ATGCGGAC` the E-score was 0.346.
For `ACGCGGAA`, the E-score was 0.27.
`TGGCCACA` has an E-score of 0.361.
`GTGTGCTA` gave an E-score of 0.286.
With `CAACATGG` the E-score was 0.311.
`ACGCGAGG` gave an E-score of 0.374.
`CAGGTGGC` gave an E-score of 0.386.

Series 2 — technique: competition protein-binding microarray; form: double-stranded DNA, one strand shown; sample: in vitro; concentration: 2 µM; together with: Cbf1 competitor, 0.05 µM; direction: higher = stronger binding
Target: Phosphate system positive regulatory protein PHO4, full length, GST-tagged (PHO4, Saccharomyces cerevisiae, UniProt P07270, residues 1-312)
Setting: whole 60-bp probe, lowest competitor level
Target sequence (chain): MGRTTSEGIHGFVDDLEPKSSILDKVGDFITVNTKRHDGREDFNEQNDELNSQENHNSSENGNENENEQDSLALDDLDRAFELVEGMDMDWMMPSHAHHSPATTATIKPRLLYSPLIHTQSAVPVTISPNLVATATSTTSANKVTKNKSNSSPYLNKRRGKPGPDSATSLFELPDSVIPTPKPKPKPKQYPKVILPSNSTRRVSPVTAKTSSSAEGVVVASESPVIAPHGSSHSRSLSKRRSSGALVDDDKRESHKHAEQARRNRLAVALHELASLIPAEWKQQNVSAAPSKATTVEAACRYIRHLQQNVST
For `GTCTTGTCTCATTTTCACGTGTATTTCCCCACTTCAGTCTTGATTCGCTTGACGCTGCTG`, the fluorescence intensity was 11800 a.u.
The fluorescence intensity of `CATACCCAACCTTGTGGAGTGGGTGAAGATATTTGTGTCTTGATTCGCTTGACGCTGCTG` is reported as 5990 a.u.
For `CGTCCTAGTGATTGTCACTAGACTTCCATGAGGAAGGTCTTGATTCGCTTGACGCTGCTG`, the fluorescence intensity was 3990 a.u.
With `TTACAGAGATACCAACACGTCCCATTGCAGTACATCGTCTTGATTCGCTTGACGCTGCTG` the fluorescence intensity was 6070 a.u.
For `AAATTACTAAGTTGATCAGTGGGTGACGCCGTATGAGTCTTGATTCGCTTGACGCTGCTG`, the fluorescence intensity was 3550 a.u.
For `AGATTCTGCAAATGGTACGTGATGGTGGTCCGCGGAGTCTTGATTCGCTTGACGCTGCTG`, the fluorescence intensity was 6140 a.u.
For `GAAGAACAAATTTTCCACATGCTTGTGCCTGCTTTAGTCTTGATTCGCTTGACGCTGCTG`, the fluorescence intensity was 7810 a.u.
With `CACCTATCATCAGCCAACGTGACGGCCGCGATGCCTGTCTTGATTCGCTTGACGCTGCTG` the fluorescence intensity was 10800 a.u.
The fluorescence intensity of `CTAACGAAGGTTTGGCCCGTGGGTGACAAGCCAAGTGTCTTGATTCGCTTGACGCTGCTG` is reported as 9710 a.u.
`AAATTACTAAGTTGTCACCAGACTTACCCCGTATGAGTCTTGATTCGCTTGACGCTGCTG` gave a fluorescence intensity of 2990 a.u.
`CTTTCCCGATCTTGGCCAGTGGGTGTAGCACATTTGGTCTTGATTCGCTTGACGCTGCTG` has a fluorescence intensity of 4400 a.u.
With `ATACTACCACACTTTCATGTGATGAAAGGTGAAACTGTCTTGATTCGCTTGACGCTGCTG` the fluorescence intensity was 5780 a.u.
The fluorescence intensity of `GTCTTGTCTCATTGACGCGTGGGTGTCCCCACTTCAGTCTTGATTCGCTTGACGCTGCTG` is reported as 10300 a.u.
`CAACAGTCAAAGGACCTCATGACAGATGGTACTTCGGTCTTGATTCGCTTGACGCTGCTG` gave a fluorescence intensity of 4730 a.u.
For `ACTATAAAGAACTGTCACATGACGATACATCCAAGCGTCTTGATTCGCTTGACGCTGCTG`, the fluorescence intensity was 7620 a.u.
For `CTTCTGTAAATTTGTGTGGTGGGTGGACGCGCCCCGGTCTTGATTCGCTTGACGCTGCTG`, the fluorescence intensity was 5120 a.u.
For `GAAAGCACTGGCAAGAACGTGTTGAAGTGCACTTCGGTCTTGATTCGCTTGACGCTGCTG`, the fluorescence intensity was 11000 a.u.
For `ATAACGTTGCTTTTGCACGTGTAGTTCGCTGCTTAGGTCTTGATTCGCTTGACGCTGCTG`, the fluorescence intensity was 14100 a.u.
With `CTAACGAAGGTTTGAGGGGTGGGTGACAAGCCAAGTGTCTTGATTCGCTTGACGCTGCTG` the fluorescence intensity was 4020 a.u.

Series 3 — technique: RNA Bind-n-Seq; form: RNA; sample: in vitro; concentration: 365 nM; baseline: no-protein control; direction: higher = stronger binding
Target: RNA binding protein fox-1 homolog 2, RRM domain, GST-SBP tag (RBFOX2, Homo sapiens, UniProt O43251-10, residues 100-194)
Setting: natural RNA segment, single round, ends assumed
`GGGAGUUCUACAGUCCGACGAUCUACACACACACAGGGACAUCAACAAGGGUAGUACACACACUAUACUGAGAACCAAAGCAACCCCAGGUGCAUAAUUGUAUAACUUACAGUCUCCCAUCAAGACUACCUCAUGGAAUUCUCGGGUGCCAA`: “RBNS enrichment (R)” 0.367.
`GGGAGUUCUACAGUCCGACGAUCAAAAAGCCAGUGCCUUCUGGCUGGUGCCGAGGCUUGGGUGAAAUGUUAAAUAUGCACUGACCUCAGAAAGUCGAGUUCAAAAGGGAGAUAAAAUUGCCAAAGUGAUCCAAUGGAAUUCUCGGGUGCCAA` — result for “RBNS enrichment (R)”: 0.491.
For `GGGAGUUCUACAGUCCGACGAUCAGCCAUCCCACAAGUUCUAUACCAUAUUUUUAGUGACAGUUGAGGUUGUAGAUACACUUUAUAACAUUUUAUAGUUUAAAGAGCUUUAUUAAUGCAAUAAAUUAACUUUGUGGAAUUCUCGGGUGCCAA`, “RBNS enrichment (R)” read 0.477.
`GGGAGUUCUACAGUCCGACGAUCUGAAGGGCCGGGCGUGCCUCUCUUGGUGUUGCAUGCUCGUGACACUCAAGAAAUUUUGAACUGAUGAGGGAGGAAGACUGGGGAAAGAAAGAAAGCACACACAGGUACUGUGGAAUUCUCGGGUGCCAA`: “RBNS enrichment (R)” 3.75.
`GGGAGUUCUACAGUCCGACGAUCCCCAGGAACUGUUCAGAAAUCUCAGAAGAAAUCUGCUUCUCUUCGAUGGAAAGAUAUAAUUAACGAUCAAAGAGCUCUAAGAAAAUUGCAAAGAAGCCUUAAUGUUCAAGUGGAAUUCUCGGGUGCCAA` — result for “RBNS enrichment (R)”: 0.779.
Under “RBNS enrichment (R)”, `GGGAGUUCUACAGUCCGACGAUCCCCCUGUCCCUGUGAGUCUGGAGUCCGAAGGGCUUGUACCUUGUCACCUUACCUUGUCAUGCCACCCCAGGAGUAGAAGCUGGGUAAGGCCCCAUCAUCCUGACCAUCUCUGGAAUUCUCGGGUGCCAA` is recorded as 0.508.
Under “RBNS enrichment (R)”, `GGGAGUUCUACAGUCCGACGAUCCCAUGACAGACUGUGCUCCUAUCCUGGGUUGAGUCCCGAUGCAUAUUCCUGCUUCAUUUCCUUUUCUCAAGGGCCGCUUCCCCGGACCCUCCUGUCAUAGGCCCCACUUGUGGAAUUCUCGGGUGCCAA` is recorded as 0.537.
`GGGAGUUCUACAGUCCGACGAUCACCAAGAGACAGCAGACAGCCUGCCUCCUGGGGCGUGCCGGCACCUGCUUCAGCUACUGCCUCCUGUAUGCAUGAGCCGGAUGCUGGGCAGGAUCCCUGCCUACGCCCGGUGGAAUUCUCGGGUGCCAA`: “RBNS enrichment (R)” 3.64.

Series 4 — technique: protein-binding microarray; form: double-stranded DNA, one strand shown; sample: in vitro; concentration: 250 nM; setting: 60-bp whole probe; together with: salmon DNA 0.4 mg/ml; baseline: random background probes; direction: higher = stronger binding; shared flanks, not repeated: GCCTAGCAC … GTCTTGATTCGCTTGACGCTGCTG
Target: Interferon regulatory factor 7, full length, phosphomimetic (IRF7, Homo sapiens, UniProt Q92985, residues 1-503, S101K/S471D/S472D/S475D/S476D/S477D/S483D/S484D/S487D)
Residues (chain): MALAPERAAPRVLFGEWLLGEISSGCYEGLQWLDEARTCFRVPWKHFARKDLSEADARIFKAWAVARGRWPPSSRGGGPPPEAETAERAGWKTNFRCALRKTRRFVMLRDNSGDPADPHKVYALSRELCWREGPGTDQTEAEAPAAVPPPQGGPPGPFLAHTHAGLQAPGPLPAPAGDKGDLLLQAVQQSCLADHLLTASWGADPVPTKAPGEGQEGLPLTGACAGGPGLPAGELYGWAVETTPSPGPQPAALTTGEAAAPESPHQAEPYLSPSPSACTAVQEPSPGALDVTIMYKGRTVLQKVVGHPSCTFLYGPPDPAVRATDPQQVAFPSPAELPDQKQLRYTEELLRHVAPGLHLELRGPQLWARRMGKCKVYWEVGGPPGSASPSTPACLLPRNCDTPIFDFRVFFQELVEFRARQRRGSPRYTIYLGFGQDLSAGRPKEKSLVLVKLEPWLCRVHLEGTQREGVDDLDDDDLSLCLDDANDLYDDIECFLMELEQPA
The log fluorescence of `TTAGGTTTCGGTTTCGGGTAGTGCTAG` is reported as 14.4 z-score.
For `TTAGGTATCCTTCTCCTCTAGTGCTAG`, the log fluorescence was 0.971 z-score.
For `GACGGAATGGACTATCGGGACGTGCTA`, the log fluorescence was -0.388 z-score.
`TTAGCTTTCGGGACTGGATTAGTGCTA` gave a log fluorescence of 0.0517 z-score.
`TTAGAGTTCAGTTTCGATTAGTGCTAG` has a log fluorescence of 8.39 z-score.
`GACGGACTGGGTGTCGGGACGTGCTAG` has a log fluorescence of -0.902 z-score.
With `TCATTTCTCTGCTCTTTTACTGTGCTA` the log fluorescence was 1.91 z-score.
With `ACTAGCTTCCATTTTCTGAAGTGCTAG` the log fluorescence was 0.283 z-score.
`TCATCTCTGCTCCTTCTGACTGTGCTA` has a log fluorescence of 0.203 z-score.
`GACGGACCGGGTTTCGGGACGTGCTAG` gave a log fluorescence of 2.81 z-score.
`TTAGAACTGAGATTCGATTAGTGCTAG` gave a log fluorescence of 1.66 z-score.
With `GACGGCTTCGGTTTCGGGACGTGCTAG` the log fluorescence was 4.01 z-score.
The log fluorescence of `GACGATTTCAGTTCTGAGACGTGCTAG` is reported as 0.288 z-score.
`TCATATATAATATATATTACTGTGCTA` has a log fluorescence of 0.536 z-score.
The log fluorescence of `TCACTTCTGGGCTGTTTGACTGTGCTA` is reported as 0.155 z-score.
`TTAGGTATCCGTATCCTTTAGTGCTAG` gave a log fluorescence of 0.295 z-score.
The log fluorescence of `TCAGTTTTTACTTTCTGACTGTGCTAG` is reported as 1.31 z-score.
`GACGGTACCGGTATCGGGACGTGCTAG` gave a log fluorescence of 0.906 z-score.
`TCATGTCTGGGATTTTGACTGTGCTAG` has a log fluorescence of -0.186 z-score.

Other studies, line by line
With `PhoQ, residues 284 288 289 292 302 303 AGGCYF` the fold induction was 3.15 (PhoP, residues 12 14 15 18 19 LHHSG (Escherichia coli, UniProt P23836); Sort-seq, measured: YFP reporter; E. coli; PhoQ-PhoP variant library, together with: 10 µM Mg2+; baseline: high Mg2+ state, higher = stronger signaling).

For quick reference, copied from above (series 4):
For `GACGGAATGGACTATCGGGACGTGCTA`, the log fluorescence was -0.388 z-score.
For `TTAGGTATCCTTCTCCTCTAGTGCTAG`, the log fluorescence was 0.971 z-score.
`GACGGACCGGGTTTCGGGACGTGCTAG` gave a log fluorescence of 2.81 z-score.
The log fluorescence of `TCACTTCTGGGCTGTTTGACTGTGCTA` is reported as 0.155 z-score.
`TCATGTCTGGGATTTTGACTGTGCTAG` has a log fluorescence of -0.186 z-score.
The log fluorescence of `TCAGTTTTTACTTTCTGACTGTGCTAG` is reported as 1.31 z-score.
`TTAGAACTGAGATTCGATTAGTGCTAG` gave a log fluorescence of 1.66 z-score.
The log fluorescence of `TTAGGTTTCGGTTTCGGGTAGTGCTAG` is reported as 14.4 z-score.
With `ACTAGCTTCCATTTTCTGAAGTGCTAG` the log fluorescence was 0.283 z-score.
`TCATCTCTGCTCCTTCTGACTGTGCTA` has a log fluorescence of 0.203 z-score.
